Published values collected from several papers.
Values joined by “and” are separate records of one study, mostly repeats; a detail may differ.
Target: Mitogen-activated protein kinase 11 (MAPK11, Homo sapiens, UniProt Q15759)

The remaining activity of `Cc1cccc(-c2ccc3nc(NC(=O)C4CCCCC4)nn3c2)c1` is reported as 82% (enzyme activity, Dundee kinase panel; 10 µM).
With `COc1cc(Nc2nccc(-c3cnn4nc(OC)ccc34)n2)cc(C(F)(F)F)c1` the remaining binding was 100% (binding, competition with immobilised ligand; 1 µM).
With `C=CC(=O)N1Cc2nc(-c3cc(-c4cc(Cl)cnc4Cl)c(F)cc3F)n(-c3ccncn3)c2C1` the inhibition was 6.1% (cell-free assay, inhibitor; 1 µM).
The remaining activity of `Nc1nc(Nc2ccccc2)sc1C(=O)c1ccccc1` is reported as 47% (enzyme activity, inhibitor; 10 µM).
The remaining binding of `Nc1ncc2c(n1)-c1c([nH]c3ccc(C4=CCOCC4)cc13)CCC2` is reported as 100% (binding, competition with immobilised ligand; 1 µM).
With `COc1c(OCCCN2CCOCC2)ccc2c1N=C(NC(=O)c1cnc(N)nc1)N1CCN=C21` the remaining activity was 99% (kinase activity, inhibitor; 1 µM; baseline: untreated control).
For `COCC12C(=O)NC3C4(C(OC)CC1O)C1CC5(O)C(OC)C(O)C(OC(C)=O)(C1C5OC(=O)c1ccccc1)C3(O)C(OC)C24` (stereo not shown), the remaining activity was 109% and 106% (kinase activity, inhibitor, ProQinase kinase profiling; 25 µM; baseline: control).
`CCN1CCN(Cc2ccc(C(=O)Nc3ccc(C)c(NCc4cnc5[nH]ccc5c4OC)c3)cc2C(F)(F)F)CC1` gave a remaining binding of 6.4% (binding, competition with immobilised ligand; 1 µM).
For `C=CC(=O)Nc1cccc(-c2cnc3[nH]cc(C(=O)NC(C)(C)C)c3n2)c1`, the inhibition was 2% (enzyme activity, inhibitor; 0.1 µM).
`Cc1cccc(-c2ccc3nc(NC(=O)C4CCCO4)nn3c2)c1` (stereo not shown) has a remaining activity of 91% (enzyme activity, Dundee kinase panel; 10 µM).
With `CN1CCN(Cc2ccc(NC(=O)c3cccc(C#Cc4cnc(N)c5ncccc45)c3)cc2C(F)(F)F)CC1` the remaining binding was 12% (cell-free assay, competition with immobilised ligand; 0.5 µM).
For `C=CC(=O)N1CCc2ccc(-n3c(=O)ccc4cnc5ccc(-c6cnn(C)c6)cc5c43)cc21`, the remaining binding was 86% (KINOMEscan; 1 µM; baseline: DMSO control).
The inhibition of `CN1CCN(Cc2ccc(-c3ccc(CO[C@H]4CCC[C@@H]4NC(=O)c4cc(-c5cnn(C)c5)cnc4N)cc3)cc2)CC1` is reported as 9% (enzyme activity, inhibitor; 0.1 µM).
`O=C(Cc1ccc(OCc2ccccc2)cc1)NC1(C(=O)O)CCN(C(=O)c2ccc(-c3cccc(Cl)c3)cc2)CC1` — result for “activity vs control”: 108% (enzyme activity, inhibitor; 10 µM).
With `COc1ccc(C(=O)/C=C/c2ccccc2-c2c[nH]c3ccc(C#N)cc23)c(O)c1` the inhibition was 2% (enzyme activity, inhibitor; 20 µM).
The remaining binding of `COc1c(Cl)cccc1Nc1c(-c2ccncc2C#C[C@@]2(C)CCCN2C(=O)/C=C/CN(C)C)[nH]c2c1C(=O)NCC2` is reported as 27% (binding, competition with immobilised ligand; 3 µM).
`CNC(=O)C[C@H](Cc1ccc(C#N)cc1)NC(=O)c1cc(-c2ccc(CN[C@H](C)c3ccc(C)cc3)o2)ccc1Cl` — result for “activity vs control”: 93% (enzyme activity, inhibitor; 1 µM).
`Cc1cnc2nc1Nc1cccc(c1)COC/C=C/COCc1cc(ccc1OCCN1CCOCC1)N2` has a remaining binding of 100% (binding, competition with immobilised ligand; 0.1 µM).
With `CNC1C[S+]2CC[S+]3CC[S+](C1)[Ru-4]321([N]=C=S)[n]2c3ccc(OC)cc3c3c4c(c5cc(F)c[n+]1c5c32)C(=O)NC4=O` (stereo not shown) the remaining binding was 83% (KinomeScan; 0.1 µM; baseline: untreated).
`Cc1cccc(O[C@H]2CCC[C@@H](C(C)CNCc3ccncc3)C2)c1` (relative stereo) has an inhibition of 3% (enzyme activity, inhibitor; 1 µM).
`COc1ccc(NC(=O)Nc2ccc3c(c2)C(=O)N(C(C)CO)CC(C)C(CN(C)Cc2ccc4c(c2)OCO4)O3)cc1` (stereo not shown) has a remaining binding of 87% (binding, competition with immobilised ligand; 10 µM).
With `NC(=O)C[C@H]1CCc2sc3ncnc(O[C@H]4CC[C@H](N5CCOCC5)CC4)c3c21` the inhibition was 5% (enzyme activity, inhibitor; 10 µM).

Excerpt of the above:
The remaining activity of `Nc1nc(Nc2ccccc2)sc1C(=O)c1ccccc1` is reported as 47% (enzyme activity, inhibitor; 10 µM).
The remaining binding of `Nc1ncc2c(n1)-c1c([nH]c3ccc(C4=CCOCC4)cc13)CCC2` is reported as 100% (binding, competition with immobilised ligand; 1 µM).
